Results of several laboratories.
Parts stem from different laboratories: compare values within a part only. Several values in a cell are separate wells, animals, samples, runs or records.
UniProt P29597, sequence (whole entry, looked up): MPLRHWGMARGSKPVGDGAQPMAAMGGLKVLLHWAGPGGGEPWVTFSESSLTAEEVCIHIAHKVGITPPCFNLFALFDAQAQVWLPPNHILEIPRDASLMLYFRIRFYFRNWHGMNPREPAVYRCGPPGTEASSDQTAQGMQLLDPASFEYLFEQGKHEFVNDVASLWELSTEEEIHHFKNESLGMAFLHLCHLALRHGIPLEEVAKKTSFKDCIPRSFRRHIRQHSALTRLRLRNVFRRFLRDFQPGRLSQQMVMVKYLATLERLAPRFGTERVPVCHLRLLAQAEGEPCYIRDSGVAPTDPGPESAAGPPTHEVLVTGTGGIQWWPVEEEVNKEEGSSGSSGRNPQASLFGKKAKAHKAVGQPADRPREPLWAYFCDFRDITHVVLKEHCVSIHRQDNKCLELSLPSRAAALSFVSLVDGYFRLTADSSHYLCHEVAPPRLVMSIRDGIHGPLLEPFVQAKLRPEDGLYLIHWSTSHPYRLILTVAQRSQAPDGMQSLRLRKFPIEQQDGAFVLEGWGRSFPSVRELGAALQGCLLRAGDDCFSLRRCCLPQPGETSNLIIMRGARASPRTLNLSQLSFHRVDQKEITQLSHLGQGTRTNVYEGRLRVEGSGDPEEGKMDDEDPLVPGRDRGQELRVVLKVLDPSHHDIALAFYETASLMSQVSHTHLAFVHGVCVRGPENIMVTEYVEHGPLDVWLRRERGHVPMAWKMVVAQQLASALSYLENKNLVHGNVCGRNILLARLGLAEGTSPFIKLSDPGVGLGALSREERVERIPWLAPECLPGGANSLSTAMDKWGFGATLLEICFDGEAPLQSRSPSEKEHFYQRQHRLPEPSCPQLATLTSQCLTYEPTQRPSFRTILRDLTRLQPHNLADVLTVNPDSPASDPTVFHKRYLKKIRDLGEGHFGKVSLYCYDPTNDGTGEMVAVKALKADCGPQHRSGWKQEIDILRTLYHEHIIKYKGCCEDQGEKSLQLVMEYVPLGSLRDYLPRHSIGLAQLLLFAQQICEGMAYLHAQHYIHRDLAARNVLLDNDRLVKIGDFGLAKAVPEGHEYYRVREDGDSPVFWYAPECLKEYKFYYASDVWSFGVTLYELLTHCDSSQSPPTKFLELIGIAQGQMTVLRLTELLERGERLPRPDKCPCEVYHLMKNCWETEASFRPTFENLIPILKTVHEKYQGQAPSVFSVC
UniProt Q9UK32, sequence (whole entry, looked up): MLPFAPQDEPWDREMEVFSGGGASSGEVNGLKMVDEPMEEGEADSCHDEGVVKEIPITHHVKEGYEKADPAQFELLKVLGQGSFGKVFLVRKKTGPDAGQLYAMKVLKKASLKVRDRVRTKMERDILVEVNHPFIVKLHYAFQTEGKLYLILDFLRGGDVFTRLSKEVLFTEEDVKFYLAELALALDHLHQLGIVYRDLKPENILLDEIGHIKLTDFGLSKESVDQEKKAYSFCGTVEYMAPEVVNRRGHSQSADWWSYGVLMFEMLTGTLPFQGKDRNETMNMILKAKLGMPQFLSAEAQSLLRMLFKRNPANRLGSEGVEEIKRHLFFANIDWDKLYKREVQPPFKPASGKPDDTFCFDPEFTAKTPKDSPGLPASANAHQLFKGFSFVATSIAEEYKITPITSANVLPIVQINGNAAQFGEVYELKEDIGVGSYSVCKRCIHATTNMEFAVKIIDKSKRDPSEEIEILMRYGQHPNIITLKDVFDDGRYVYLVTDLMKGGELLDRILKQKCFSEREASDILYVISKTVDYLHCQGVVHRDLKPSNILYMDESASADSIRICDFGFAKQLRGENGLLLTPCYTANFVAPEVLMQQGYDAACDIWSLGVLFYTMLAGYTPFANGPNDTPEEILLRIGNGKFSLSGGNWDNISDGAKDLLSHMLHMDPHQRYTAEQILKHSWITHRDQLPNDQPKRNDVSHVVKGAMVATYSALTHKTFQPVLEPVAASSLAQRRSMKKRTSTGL
UniProt Q92918, sequence (whole entry, looked up): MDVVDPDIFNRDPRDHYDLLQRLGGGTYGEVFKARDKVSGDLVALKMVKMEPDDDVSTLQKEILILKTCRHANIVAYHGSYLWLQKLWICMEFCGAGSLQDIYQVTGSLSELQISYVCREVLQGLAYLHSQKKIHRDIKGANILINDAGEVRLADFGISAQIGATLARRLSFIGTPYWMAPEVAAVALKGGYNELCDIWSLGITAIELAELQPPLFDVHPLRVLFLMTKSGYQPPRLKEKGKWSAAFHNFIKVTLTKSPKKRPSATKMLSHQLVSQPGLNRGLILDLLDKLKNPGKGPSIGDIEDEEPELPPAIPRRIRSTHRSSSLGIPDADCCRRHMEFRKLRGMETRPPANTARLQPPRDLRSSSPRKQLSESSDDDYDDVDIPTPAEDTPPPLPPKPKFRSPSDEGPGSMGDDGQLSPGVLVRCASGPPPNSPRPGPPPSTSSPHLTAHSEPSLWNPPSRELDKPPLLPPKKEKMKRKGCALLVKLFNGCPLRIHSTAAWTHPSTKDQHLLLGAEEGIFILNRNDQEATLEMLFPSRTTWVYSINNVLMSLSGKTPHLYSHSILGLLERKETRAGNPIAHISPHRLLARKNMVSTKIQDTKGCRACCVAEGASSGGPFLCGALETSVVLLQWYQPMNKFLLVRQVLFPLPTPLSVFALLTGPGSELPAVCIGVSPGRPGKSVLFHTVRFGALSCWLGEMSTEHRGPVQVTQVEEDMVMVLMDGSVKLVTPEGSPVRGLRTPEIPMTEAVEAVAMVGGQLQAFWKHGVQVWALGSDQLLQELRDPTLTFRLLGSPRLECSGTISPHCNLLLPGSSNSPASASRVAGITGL
UniProt Q9UQB9, sequence (whole entry, looked up): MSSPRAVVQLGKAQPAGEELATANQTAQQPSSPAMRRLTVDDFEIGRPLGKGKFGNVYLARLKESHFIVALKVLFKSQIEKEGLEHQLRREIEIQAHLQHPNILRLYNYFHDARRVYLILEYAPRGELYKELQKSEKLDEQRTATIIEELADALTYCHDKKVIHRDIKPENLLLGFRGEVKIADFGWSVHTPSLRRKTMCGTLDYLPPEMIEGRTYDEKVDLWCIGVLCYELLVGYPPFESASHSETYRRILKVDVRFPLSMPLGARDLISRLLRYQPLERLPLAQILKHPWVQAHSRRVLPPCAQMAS
UniProt Q6XUX3, sequence (whole entry, looked up): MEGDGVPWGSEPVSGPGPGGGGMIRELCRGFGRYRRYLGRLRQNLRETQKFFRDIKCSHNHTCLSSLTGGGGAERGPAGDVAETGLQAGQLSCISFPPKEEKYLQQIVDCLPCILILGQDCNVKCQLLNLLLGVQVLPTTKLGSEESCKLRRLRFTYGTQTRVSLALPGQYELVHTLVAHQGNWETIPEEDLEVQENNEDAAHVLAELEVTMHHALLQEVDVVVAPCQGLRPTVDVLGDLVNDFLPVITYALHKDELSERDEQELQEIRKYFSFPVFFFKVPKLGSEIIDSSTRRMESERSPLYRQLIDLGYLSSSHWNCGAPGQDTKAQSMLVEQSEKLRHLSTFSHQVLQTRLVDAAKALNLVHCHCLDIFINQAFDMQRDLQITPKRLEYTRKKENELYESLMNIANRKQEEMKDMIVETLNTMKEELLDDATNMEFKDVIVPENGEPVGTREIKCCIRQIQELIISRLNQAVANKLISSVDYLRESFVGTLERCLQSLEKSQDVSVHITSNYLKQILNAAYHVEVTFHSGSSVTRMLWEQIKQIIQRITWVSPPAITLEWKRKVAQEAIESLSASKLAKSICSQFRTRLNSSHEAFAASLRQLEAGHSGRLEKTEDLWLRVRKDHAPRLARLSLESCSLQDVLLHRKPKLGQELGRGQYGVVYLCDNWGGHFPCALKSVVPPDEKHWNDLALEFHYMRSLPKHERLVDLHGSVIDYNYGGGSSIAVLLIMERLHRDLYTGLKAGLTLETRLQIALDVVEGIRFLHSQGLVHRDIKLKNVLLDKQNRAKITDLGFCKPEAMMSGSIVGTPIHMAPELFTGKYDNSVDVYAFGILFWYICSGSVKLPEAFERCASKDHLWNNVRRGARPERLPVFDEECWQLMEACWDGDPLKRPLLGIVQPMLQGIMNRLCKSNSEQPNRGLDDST
UniProt P32298, sequence (whole entry, looked up): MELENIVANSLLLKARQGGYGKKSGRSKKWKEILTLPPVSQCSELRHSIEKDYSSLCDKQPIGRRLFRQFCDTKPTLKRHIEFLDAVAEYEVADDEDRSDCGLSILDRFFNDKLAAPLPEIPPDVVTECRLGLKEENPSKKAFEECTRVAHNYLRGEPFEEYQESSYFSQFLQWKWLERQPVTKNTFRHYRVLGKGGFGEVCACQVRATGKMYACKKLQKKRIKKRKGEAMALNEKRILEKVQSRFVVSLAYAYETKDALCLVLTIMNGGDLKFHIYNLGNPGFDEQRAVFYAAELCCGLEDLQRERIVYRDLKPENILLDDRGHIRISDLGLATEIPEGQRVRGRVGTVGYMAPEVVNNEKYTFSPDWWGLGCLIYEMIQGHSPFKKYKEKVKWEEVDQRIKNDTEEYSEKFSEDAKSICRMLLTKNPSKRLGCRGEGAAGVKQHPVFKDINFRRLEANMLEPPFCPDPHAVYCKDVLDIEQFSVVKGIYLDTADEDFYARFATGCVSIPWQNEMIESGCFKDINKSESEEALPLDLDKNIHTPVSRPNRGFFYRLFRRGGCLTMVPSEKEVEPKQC

Block 1
SMILES: CNCc1ccccc1-c1csc([C@H](C)Nc2nc(C)nc3cc(OC)c(OC)cc23)c1
Effect on: cell-free assay
Technique: competition with immobilised ligand
Concentration: 1 µM
target | remaining binding [%]
MAP4K1 (Homo sapiens, UniProt Q92918) | 100
HIPK4 (Homo sapiens, UniProt Q8NE63) | 91
FLT3 (Homo sapiens, UniProt P36888, K663Q) | 93
FLT3 (Homo sapiens, UniProt P36888, D835V/ITD) | 81
Non-receptor tyrosine-protein kinase TYK2, JH2 (TYK2, Homo sapiens, UniProt P29597) | 76
GRK4 (Homo sapiens, UniProt P32298) | 97
DSTYK (Homo sapiens, UniProt Q6XUX3) | 78
MAP3K15 (Homo sapiens, UniProt Q6ZN16) | 77
Ribosomal protein S6 kinase alpha-6, C-terminal kinase domain (RPS6KA6, Homo sapiens, UniProt Q9UK32) | 100
Aurora kinase C (AURKC, Homo sapiens, UniProt Q9UQB9) | 94
PTK2 (Homo sapiens, UniProt Q05397) | 92
LATS2 (Homo sapiens, UniProt Q9NRM7) | 95
FLT1 (Homo sapiens, UniProt P17948) | 91

Block 2
Target: Calcium/calmodulin-dependent protein kinase type II subunit alpha (CAMK2A, Homo sapiens, UniProt Q9UQM7)
UniProt Q9UQM7, sequence (whole entry, looked up): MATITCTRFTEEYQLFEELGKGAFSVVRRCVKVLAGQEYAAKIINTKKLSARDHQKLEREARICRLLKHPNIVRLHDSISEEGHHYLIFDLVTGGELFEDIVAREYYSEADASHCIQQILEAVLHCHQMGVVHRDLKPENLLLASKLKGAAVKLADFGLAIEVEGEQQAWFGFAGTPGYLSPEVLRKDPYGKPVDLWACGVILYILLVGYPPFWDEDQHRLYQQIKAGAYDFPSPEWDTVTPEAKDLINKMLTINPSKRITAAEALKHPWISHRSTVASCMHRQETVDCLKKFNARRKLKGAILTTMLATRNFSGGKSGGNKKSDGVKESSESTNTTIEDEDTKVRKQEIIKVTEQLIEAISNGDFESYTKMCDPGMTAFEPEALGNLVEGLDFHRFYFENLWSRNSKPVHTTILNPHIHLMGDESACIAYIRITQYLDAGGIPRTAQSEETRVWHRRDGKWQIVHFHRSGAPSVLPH
Effect on: enzyme activity
Action: inhibitor
Concentration: 10 µM
Compound | inhibition
COc1ccc(-c2nc3cc(C4=NNC(=O)CC4C)ccc3[nH]2)cc1 (stereo not shown) | 5%
Cc1cc(O)c(C)c2c1O[C@](C)(CCC[C@H](C)CCC[C@H](C)CCCC(C)C)CC2 | -0.04%
Cn1c(=O)[nH]c2ncn(C)c2c1=O | -2%
NCc1ccc(S(N)(=O)=O)cc1 | 0%
OC[C@H]1O[C@H](OC[C@H]2O[C@H](OC[C@H]3O[C@H](OC[C@H]4OC(O)[C@H](O)[C@@H](O)[C@@H]4O)[C@H](O)[C@@H](O)[C@@H]3O)[C@H](O)[C@@H](O)[C@@H]2O)[C@H](O)[C@@H](O)[C@@H]1O (stereo partly shown) | 23%
C/C=C/C(=O)O | -38%
CS(=O)(=O)c1ccc(C(=O)Nc2ccc(Cl)c(-c3ccccn3)c2)c(Cl)c1 | -14%

Block 3
Host: human
Medium: microsomes or S9
Concentration: 2 µM
Time: 0.5 h
Structure (SMILES) | remaining compound
Cc1ccc(C2CC(=O)Nc3c2c(C)nn3-c2ccc(N3CCCCC3)nn2)cc1C (stereo not shown) | > 100%
Cn1c(=O)n(-c2ncccc2C#N)c2ccccc21 | 45.7%
CN1CCN(c2ccc3[nH]c(-c4ccc5[nH]c(-c6ccc(O)cc6)nc5c4)nc3c2)CC1 | 49.8%
O=[N+]([O-])c1cccc(F)c1COc1cccc(C(F)(F)F)c1 | 32.6%
O=C(O)c1cccc(NC(=O)c2cc(S(=O)(=O)Nc3ccc(Br)cc3)ccc2Cl)c1 | 79.4%
c1cc2c(ccn2-c2ccc3ccnc(N4CCCC4)c3c2)cn1 | 7.81%
COc1ccc(-c2csc(/C(C#N)=C3\C=CC=CN3C)n2)cc1 | 7.58%

Block 4
SMILES: CC(C)(C)c1cnc(CSc2cnc(NC(=O)C3CCN(CCCCCSc4cccc5c4CN(C4CCC(=O)NC4=O)C5=O)CC3)s2)o1 (stereo not shown)
cell line | effect on | technique | concentration | time | reference | viability
HuT78 | – | trypan blue exclusion | 1 nM | 48 h | untreated control | 100%
HuT78 | cell growth or viability | trypan blue | 50 nM | 48 h | – | 52.9%
HuT78 | – | trypan blue exclusion | 10 nM | 48 h | untreated control | 96% and 94.7%
HuT78 | cell growth or viability | trypan blue | 0.1 µM | 48 h | – | 13.5%
HH | – | CCK-8 | 10 nM | – | – | 103% and 95.8%
HuT78 | – | trypan blue exclusion | 100 nM | 48 h | untreated control | 23% and 16.1%
HH | – | CCK-8 | 500 nM | – | – | 0%

For quick reference, copied from above (block 1):
target | remaining binding [%]
FLT3 (Homo sapiens, UniProt P36888, D835V/ITD) | 81
Non-receptor tyrosine-protein kinase TYK2, JH2 (TYK2, Homo sapiens, UniProt P29597) | 76
GRK4 (Homo sapiens, UniProt P32298) | 97
